Published values collected from several papers.
Each numbered part is a random draw from the data of one study; scales do not carry over between parts.

Study 1
Target: Prothrombin, mature alpha-thrombin (F2, Homo sapiens, UniProt P00734)
Technique: aptamer microarray, sandwich
Form: DNA with 2'F-ANA
Matrix: in vitro
Tested at: 200 nM
Notes: whole 15-mer aptamer, many near background
With: Cy3 exosite-II aptamer, 400 nM
Direction: higher = stronger binding
Strand: GGTTGGTGTGGTTGG
For `2'F-ANA at 2 5 8 9 10 12 13`, “mean fluorescence intensity” read 50.6 a.u.
For `2'F-ANA at 2 3 4 6 7 8 9 13 14`, “mean fluorescence intensity” read 209 a.u.
`2'F-ANA at 1 3 4 5 6 7 10 13 14` — result for “mean fluorescence intensity”: 47.5 a.u.
`2'F-ANA at 3 5 7 8 12 13 15` — result for “mean fluorescence intensity”: 206 a.u.
Under “mean fluorescence intensity”, `2'F-ANA at 3 4 5 6 7 9 10 11 12 14` is recorded as 52 a.u.

Study 2
Target: Fragile X messenger ribonucleoprotein 1, C-terminal low-complexity region (Fmr1, Mus musculus, UniProt P35922)
Technique: RNA Bind-n-Seq
Form: RNA
Matrix: in vitro
Tested at: 200 nM
Notes: whole 134-nt RNA, ends assumed
With: 150 mM KCl
Reference: input library
Direction: higher = stronger binding
For `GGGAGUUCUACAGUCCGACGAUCCCUGUGCUACACAUCGUAUGUACCGAAUCGGGGAAAAAAGGGGAAAAAAGGAAAAAAGGGGAAAGUAUUAUGUUACGCCGUUCGGAUCUGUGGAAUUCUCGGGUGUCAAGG`, the log2 enrichment was -0.497.
`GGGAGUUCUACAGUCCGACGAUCCCUCAAGUCCUGUGCUACACAUCGUAUGUACCGAAUCGGGGUGGUGGGUGGGGAAAGUAUUAUGUUACGCCGUUCGGAUCUGCACUUCCAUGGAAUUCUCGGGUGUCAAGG` gave a log2 enrichment of 1.09.
With `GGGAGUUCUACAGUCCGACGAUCAAGUCCUGUGCUACACAUCGUAUGUACCGAAUCGGGAAAAAGGGUUUGGGAAAGGGAAAGUAUUAUGUUACGCCGUUCGGAUCUGCACUUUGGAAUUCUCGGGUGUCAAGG` the log2 enrichment was 0.172.
`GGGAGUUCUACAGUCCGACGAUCCACAGACAACACGCACCCACACAGACACAGAGGGAAGGGGUUGGGAUGGGGACAGGGUGCACAGCAGGGCGGGGUAGGACCCCAGGCCCUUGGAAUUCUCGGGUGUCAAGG` has a log2 enrichment of 1.24.
`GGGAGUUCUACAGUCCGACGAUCUGGCCCUGGUGGCAUGCGGGGAGGAAGAGGUGGCCUCAUGGAUCGUGGUGGUCCCGGUGGAAUGUUCAGAGGUGGCCGUGUUGGAGACAGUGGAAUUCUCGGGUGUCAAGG` has a log2 enrichment of -0.231.

Study 3
Target: Histone acetyltransferase KAT6A, winged helix 2, GST fusion (KAT6A, Homo sapiens, UniProt Q92794, residues 85-181)
Technique: protein binding microarray
Form: double-stranded DNA, one strand shown
Matrix: in vitro
Tested at: not given
Notes: 8-mer, flanks averaged, mean of 2 arrays, mostly near background
Reference: not given
Direction: higher = stronger binding
Residues (chain): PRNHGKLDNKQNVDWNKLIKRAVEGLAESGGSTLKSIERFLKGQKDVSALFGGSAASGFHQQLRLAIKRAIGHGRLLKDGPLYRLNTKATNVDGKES
The E-score of `ATCGGCCC` is reported as 0.0532.
With `CTTGGGAA` the E-score was 0.0929.
`CCGGAGCC` has an E-score of 0.0924.
`CGAAAACG` gave an E-score of 0.0582.

Other studies, line by line
For `PhoQ, residues 284 288 289 292 302 303 WVSSAF`, the fold induction was 49.8 (PhoP, residues 12 14 15 18 19 IQSYL (Escherichia coli, UniProt P23836); Sort-seq, measured: YFP reporter; E. coli; PhoQ-PhoP variant library, with: 10 µM Mg2+; reference: high Mg2+ state, higher = stronger signaling).

A few entries again (study 3):
With `CTTGGGAA` the E-score was 0.0929.
`CCGGAGCC` has an E-score of 0.0924.
